# Experimental data gathered from unrelated publications.
# Numbered parts are unrelated; each lists some results of a single study. Values joined by “and” are separate records of one study, mostly repeats; a detail may differ.
# UniProt P46098, sequence (whole entry, looked up): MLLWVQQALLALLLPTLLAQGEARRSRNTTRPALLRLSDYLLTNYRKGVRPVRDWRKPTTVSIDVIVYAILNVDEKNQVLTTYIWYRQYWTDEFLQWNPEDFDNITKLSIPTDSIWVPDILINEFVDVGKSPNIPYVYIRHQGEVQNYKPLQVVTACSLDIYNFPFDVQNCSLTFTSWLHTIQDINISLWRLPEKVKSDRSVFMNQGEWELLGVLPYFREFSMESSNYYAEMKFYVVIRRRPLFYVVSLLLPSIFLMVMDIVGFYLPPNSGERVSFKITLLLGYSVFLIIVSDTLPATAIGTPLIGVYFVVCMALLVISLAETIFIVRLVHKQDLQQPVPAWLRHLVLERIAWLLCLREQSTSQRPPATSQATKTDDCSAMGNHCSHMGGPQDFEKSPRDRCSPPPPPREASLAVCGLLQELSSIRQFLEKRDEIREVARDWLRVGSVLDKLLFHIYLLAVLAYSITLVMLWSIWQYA
# UniProt P28566, sequence (whole entry, looked up): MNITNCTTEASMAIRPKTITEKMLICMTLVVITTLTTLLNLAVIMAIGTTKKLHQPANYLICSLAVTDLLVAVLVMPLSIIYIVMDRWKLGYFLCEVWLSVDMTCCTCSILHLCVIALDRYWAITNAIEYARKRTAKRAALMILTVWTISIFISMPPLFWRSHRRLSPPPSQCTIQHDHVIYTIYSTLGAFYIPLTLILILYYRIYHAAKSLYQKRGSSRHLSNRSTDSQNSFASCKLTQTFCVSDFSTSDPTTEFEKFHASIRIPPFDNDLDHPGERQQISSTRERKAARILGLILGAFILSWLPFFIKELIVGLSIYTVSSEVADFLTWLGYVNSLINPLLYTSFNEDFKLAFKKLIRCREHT

# Set 1 — organism: Sarcocystis neurona; read-out: parasite growth; concentration: 10 µM; time: 96 h; setting: first screen; reference: untreated
SMILES,log2 fold change
CCCCN1CCCC1CNC(=O)c1cc(C#N)c2ccccc2c1OC (centres unmarked),-0.27
CC(C)[C@H](N)C(=O)OCCOCn1cnc2c(=O)[nH]c(N)nc21,-0.12
CCOc1cc(CC(=O)N[C@@H](CC(C)C)c2ccccc2N2CCCCC2)ccc1C(=O)O,-0.62
CC(=O)OCC(=O)[C@@]1(O)CC[C@H]2[C@@H]3CCC4=CC(=O)CC[C@]4(C)[C@H]3[C@@H](O)C[C@@]21C,0.0454
CC(CCc1ccccc1)NCC(O)c1ccc(O)c(C(N)=O)c1 (centres unmarked),0.21
CCCCC1=NC2(CCCC2)C(=O)N1Cc1ccc(-c2ccccc2-c2nnn[nH]2)cc1,-0.29
COc1cc2nc(N3CCN(C(=O)C4COc5ccccc5O4)CC3)nc(N)c2cc1OC (centres unmarked),-1.87
CN(C)CCc1c[nH]c2ccc(C[C@H]3COC(=O)N3)cc12,-0.06
CC(C)C(=O)Nc1ccc([N+](=O)[O-])c(C(F)(F)F)c1,0.25
COc1cccc2c1C(=O)c1c(O)c3c(c(O)c1C2=O)C[C@@](O)(C(C)=O)C[C@@H]3O[C@H]1C[C@H](N)[C@H](O)[C@H](C)O1,-5.34
C[n+]1ccccc1/C=N/O,0.35

# Set 2 — cell line: mouse MPNST tumor cells; method: high-content immunofluorescence imaging; refers to: nuclear SOX9; concentration: 10 µM; time: 12 h; setting: mean of 2 replicates; reference: DMSO control; direction: higher = more nuclear SOX9
Compound,nuclear SOX9 intensity
CCCCc1nc(Cl)c(CO)n1Cc1ccc(-c2ccccc2-c2nnn[nH]2)cc1,99.4 % of DMSO and 96.4 % of DMSO
O=S(=O)(Cc1ccccc1)Nc1ccc(-c2ccc3c(cnn3-c3ccc(F)cc3)c2)c(C(F)(F)F)c1,87.7 % of DMSO
Cc1nc2sccn2c(=O)c1CCN1CCC(=C(c2ccccc2)c2ccc(F)cc2)CC1,120 % of DMSO
O=c1[nH]c2ccc(-c3c(Cl)cccc3OC(F)(F)F)cc2[nH]1,132 % of DMSO
CCN(CC)CC#CCOC(=O)C(O)(c1ccccc1)C1CCCCC1 (centres unmarked),136 % of DMSO
CC(C)(C)C1CCc2c(sc(NC(=O)c3ccco3)c2C(=O)O)C1 (centres unmarked),84.3 % of DMSO
CCCCOc1cc(CC2CNC(=O)N2)ccc1OC (centres unmarked),94.7 % of DMSO
CC(=O)NCCc1c(Cc2ccccc2)[nH]c2ccccc12,95.8 % of DMSO
CCCCCCCCCCC(C)(C)C(=O)Nc1c(OC)cc(OC)cc1OC,101 % of DMSO
CC(C)n1nc(C#Cc2ccccc2)c2c(N)ncnc21,126 % of DMSO

# Set 3
# Compound: COc1cc(C(=O)N2CCC(N3CCN(C)CC3)CC2)ccc1Nc1ncc2c(n1)N(C)c1ccccc1C(=O)N2C
tested on,test,system,setting,inhibition
YSK1 (mouse),KiNativ ADP probe,mouse brain tissue,"0.1 µM, probe site Lys1",-21.2%
IRAK3 (human),"probe labelling, KiNativ ADP probe",human PBMC lysate,"concentration not given, LYS1 labelled site",-12.1%
MINK (mouse),"probe labelling, inhibitor, KiNativ ActivX ATP probe",mouse brain lysate,"0.1 µM, Lys1 site peptide",3%
FER (human),"probe labelling, KiNativ ATP probe",human PBMC lysate,"concentration not given, LYS1 labelled site",1.2%
RSKL1 domain 1 (mouse),"probe labelling, inhibitor, KiNativ ActivX ADP probe",mouse brain lysate,"1 µM, kinase domain peptide",-11.5%
BRSK2 (mouse),"probe labelling, KiNativ ATP probe",mouse brain lysate,"1 µM, LYS2 labelled site",10.2%
human PBMC,"probe labeling, inhibitor, KiNativ profiling, refers to: DIkPDNLLLDSK",cell lysate,"1 µM, LYS2 site, together with: ATP acyl-phosphate probe",0.3%
ZAP70 (human),"probe labelling, KiNativ, refers to: activation loop peptide",PBMC lysate (human),"1 µM, together with: ADP acyl-phosphate probe",-13.5%

# Further values, each from its own experiment — concentration: 10 µM
Structure (SMILES),tested on,read-out,method,time,measurement,result
CN([C@@H]1CCc2c(CC(=O)O)c3ccccc3n2C1)S(=O)(=O)c1ccc(F)cc1,"5-hydroxytryptamine receptor 3A (HTR3A, Homo sapiens, UniProt P46098)",ligand displacement,,,inhibition,-3.86%
COc1cc(N[C@@H]2CCCC[C@]2(O)C(F)(F)F)ccc1F,"5-hydroxytryptamine receptor 1E (HTR1E, Homo sapiens, UniProt P28566)",ligand displacement,,,inhibition,-4.13%
Cn1cncc1[C@@](O)(COc1ccc(C#N)cc1-c1ccc(OC(F)(F)F)cc1)c1ccc(C#N)cc1,HEK293T,,high-content imaging,12 h,membrane-permeable cells,33.1% and 27.8%

# Excerpt of the above (set 1):
SMILES,log2 fold change
CC(C)[C@H](N)C(=O)OCCOCn1cnc2c(=O)[nH]c(N)nc21,-0.12
CCOc1cc(CC(=O)N[C@@H](CC(C)C)c2ccccc2N2CCCCC2)ccc1C(=O)O,-0.62
CC(=O)OCC(=O)[C@@]1(O)CC[C@H]2[C@@H]3CCC4=CC(=O)CC[C@]4(C)[C@H]3[C@@H](O)C[C@@]21C,0.0454
